Experimental data pooled from the literature.
A part holds a random share of what one study measured.

Series 1
Target: RNA binding protein fox-1 homolog 2, RRM domain, GST-SBP tag (RBFOX2, Homo sapiens, UniProt O43251-10, residues 100-194)
Technique: RNA Bind-n-Seq
Molecule type: RNA
Matrix: in vitro
Concentration: 365 nM
Notes: natural RNA segment, single round, ends assumed
Reference: no-protein control
Reading: higher = stronger binding
All sequences stand within: GGGAGUUCUACAGUCCGACGAUC … UGGAAUUCUCGGGUGCCAA
Target sequence (chain): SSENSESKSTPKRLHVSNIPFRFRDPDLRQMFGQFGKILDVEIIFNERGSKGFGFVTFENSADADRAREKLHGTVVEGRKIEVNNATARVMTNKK
For `GUUGGGAUUCUGUUAUCCCUGAUACCCCAGGAGCCUAUUGACCUGACUGAGAAUAGUGACAUGUCUGUCUUGUGACCAGAUAUGAGUGUGCAUAAGGUCCUGUCUAGCCG`, “RBNS enrichment (R)” read 0.606.
Under “RBNS enrichment (R)”, `GCUGUGCUGCUGCUCGAAGCAGAUGGUUUUGACUGUCUUUUUGCUCUUUCCUAUAUAAUGAAUAGAUGAGUGAAAGGAGUUUUCUUUUUCUCUUUAGUACUUACGUAUUG` is recorded as 0.464.
For `CCUGCGGCCCUACAAAUAACCGGGGGGAGCGGCCCUGCCUGGGGGUGGCCUGGUCCGCGGAGGGUGCACCUGCCCUCCACAGUGGGAGCUGCAUGGGCCUCCACACCACC`, “RBNS enrichment (R)” read 0.776.
`UUCCUCCAGAGCGGCGUUAGACAGGAUAGCGGUCCGCACCGGGGGCCGUGUUUAAGGGAGAUUGGAGGAGGGGAAAGGCGGAAAGGUCUUGGGACUCUAAGCUAUUGGGU` — result for “RBNS enrichment (R)”: 0.685.
`AGGACCUUUCCACCACAGCCAGCACCUGGCAUCGCACCAUUCUGACUCGGUUUCUCCAAACUGAAGCAGCCUCUCCCCAGGUCCAGCUCUGGAGGGGAGGGGGAUCCGAC`: “RBNS enrichment (R)” 0.416.
`UACUCCAUUGGAGGGAAAGGAAGAGUCUUAGAAUUCCUAAGGGAACCUUAGCAUAAAGGUUUUGGGGAAGGAGGCCGUAGGCCGGCCCGGAGGAAGCAAUUCCACUUGGU` — result for “RBNS enrichment (R)”: 0.482.
For `GCCGUUGUCUUUCUCAACUGCUACUGUCACGUUGCUUUCAAGAAAACAUUUUUUUUCAUUCCAGACUAACCAGAACCUGCAUUUAGAAUAGGAGUCCUUUCUCCGACCUU`, “RBNS enrichment (R)” read 0.611.
Under “RBNS enrichment (R)”, `UGUUGGGAAACUGGAUUCAGUGGGAUCUACAAGGAAUGUCAUUUUUGUGCAUCCUACAGUGAGGAGUAACUGAUCAGGUGUCUAUAACAUUUUUCAUUCUCUCUGGAAAC` is recorded as 0.326.

Series 2
Target: Histone acetyltransferase KAT6A, winged helix 2, GST fusion (KAT6A, Homo sapiens, UniProt Q92794, residues 85-181)
Technique: protein binding microarray
Molecule type: double-stranded DNA, one strand shown
Matrix: in vitro
Concentration: not given
Notes: 8-mer, flanks averaged, mean of 2 arrays, mostly near background
Reference: not given
Reading: higher = stronger binding
Residues (chain): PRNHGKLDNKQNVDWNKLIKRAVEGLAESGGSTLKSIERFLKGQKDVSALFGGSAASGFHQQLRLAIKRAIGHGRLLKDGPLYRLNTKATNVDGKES
`ACCTCGGA` has an E-score of 0.0525.
With `CAATCGGG` the E-score was -0.052.
With `GGCCAATA` the E-score was -0.128.
`CCTGAGTC` gave an E-score of 0.00428.
For `ATGCAGGG`, the E-score was 0.0558.
With `CCTATGAA` the E-score was -0.181.
The E-score of `AAGCACCT` is reported as 0.0619.
`CGAATATA` gave an E-score of -0.0297.
`ATCTAGCG` has an E-score of 0.0234.
`CTGCGGCC` has an E-score of 0.172.
With `GGCTACGA` the E-score was 0.063.
`AGAATCAG` has an E-score of 0.0368.
For `CGTAGGAG`, the E-score was -0.123.
For `GCCGAGCA`, the E-score was 0.202.
With `CTTACCTA` the E-score was -0.126.
`GCTTGCAA` gave an E-score of 0.0789.
With `CTATGTAA` the E-score was -0.0954.
With `GCCCACCA` the E-score was -0.0454.
`CTCCCCGC` has an E-score of 0.239.
`CTGAAACA` has an E-score of 0.193.
With `ATAAGTCA` the E-score was -0.134.
For `AGGCTCTA`, the E-score was -0.069.
`CGCTTACC` has an E-score of 0.0391.
For `ACGCTGTG`, the E-score was 0.162.
For `AACGAGAC`, the E-score was -0.169.

Series 3
Target: RING finger protein unkempt homolog, zinc fingers 1-6, GST-SBP tag (UNK, Homo sapiens, UniProt Q9C0B0, residues 30-357)
Sequence of UniProt Q9C0B0 (30-357, looked up): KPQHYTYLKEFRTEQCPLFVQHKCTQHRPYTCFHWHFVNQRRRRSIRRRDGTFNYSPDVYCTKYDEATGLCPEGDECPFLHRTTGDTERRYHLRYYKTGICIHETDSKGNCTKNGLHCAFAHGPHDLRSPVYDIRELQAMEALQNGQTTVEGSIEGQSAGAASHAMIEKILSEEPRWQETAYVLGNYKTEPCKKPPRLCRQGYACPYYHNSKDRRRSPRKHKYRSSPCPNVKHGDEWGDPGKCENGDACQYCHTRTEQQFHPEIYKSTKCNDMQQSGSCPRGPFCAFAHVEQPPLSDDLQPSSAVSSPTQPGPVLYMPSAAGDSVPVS
Technique: RNA Bind-n-Seq
Molecule type: RNA
Matrix: in vitro
Concentration: not given
Notes: RNA with constant flanks, human-mouse chimeric sites, ends assumed
Reference: input RNA pool
Reading: higher = stronger binding
All sequences stand within: GGGAGUUCUACAGUCCGACGAUC … CAACAGAGGAUUGAGCAUCA
The bound/input enrichment of `GAUCAUGAACCACCAUCAGAAAUGAAGAUGAGAUUACCCAAGACGAGCAAAACAGCUGCGCUACAGAAAAAGUAAACUAACCUUGCAGAGUUCCUUAAUGAAGAUACAAGUUAAGAGAGC` is reported as 0.216 ratio.
For `GCUCUUGGCAAUGUAAUCAGCGCCUUGGGGGACAAGAGCAAGAGAGCCACCCAUGUCCCCUAUAGAGACUCUAAGCUGACAAGACUCUUGCAGGAUUCCCUUGGGGGUAACAGCCAAACC`, the bound/input enrichment was 0.117 ratio.
`AAAGUGAUGACUAUGUUUGUCCAACGACAGGUGUUUGCGGAGAGCAAGGAUGAGAUUGCGUUAGUCCUCUAUGGCACAGAUGGCACUGAUAAUGCCCUUGCUGGCAAGGACCAGUAUCAG` has a bound/input enrichment of 0.138 ratio.
`CUGGGUAUCAUCUCUCGUGCUGUUAGACACCUGUUCAAGAGUAUUGAUGAGAAAAAGACCUCAGCGAUUAAAAACGGGCUGCCCCCUCCAGAUUUUAAAGUGAAUGCCCAGUUCCUAGAG` gave a bound/input enrichment of 0.335 ratio.
`CUCUUUGAAUCAUUCAAGAGUUUUGAAGGUCUCUUUUAUUUUCUGGGGUCCAUUGUUAACUUUAGUCAGGACCCAGAUGUGCACUUUAAAUAUAUUCAGGCAGCUUGCAAGACUGGGCAA` gave a bound/input enrichment of 0.642 ratio.
`CUGUGACCACAAGAUCCUGAAGUUUGAGCAGCUGAAGUUGACUCCCUCUCCUUGCCUGAACCCCCCCCCACUGCCCCUUGAGUCCACAGUGUCGGCUGAGAUGUUGCCUCUGCACGGUUC` gave a bound/input enrichment of 0.896 ratio.
`ACUCUUGACUCUUUCCAUCCUCUUCCUUUCCCUCUUGAUAUUCAAGGCCAUGAAUCCCAAAAUAACAGUCUUAGUGGCUAGCACCCACCCAAACUGAGAAUAAAUCCACCCCAGUGUCUC` has a bound/input enrichment of 0.502 ratio.
With `GAUCAUGAACCACCAUCCAGAAAUGAAAUGAGAUUACCCAGACGAGCCAAAACAGCUGCGCUACAGAAAAGUAAACUUUAACCUUGCGAGUUCCUUAAUGAAGAUACAAGUUAAGAGAGC` the bound/input enrichment was 0.214 ratio.

Series 4
Target: Centromere-binding protein 1, full length, His-tagged (CBF1, Saccharomyces cerevisiae, UniProt P17106, residues 1-351)
Sequence of UniProt P17106 (whole entry, looked up): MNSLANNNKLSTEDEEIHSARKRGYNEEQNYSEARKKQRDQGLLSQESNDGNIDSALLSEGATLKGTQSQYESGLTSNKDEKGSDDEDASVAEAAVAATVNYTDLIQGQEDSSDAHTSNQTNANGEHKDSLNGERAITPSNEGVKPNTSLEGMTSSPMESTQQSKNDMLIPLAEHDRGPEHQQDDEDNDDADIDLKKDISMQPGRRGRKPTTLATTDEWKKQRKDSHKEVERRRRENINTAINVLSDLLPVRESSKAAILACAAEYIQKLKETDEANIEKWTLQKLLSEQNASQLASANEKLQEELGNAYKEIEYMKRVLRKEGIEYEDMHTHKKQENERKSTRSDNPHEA
Technique: competition protein-binding microarray
Molecule type: double-stranded DNA, one strand shown
Matrix: in vitro
Concentration: 2 µM
Notes: whole 60-bp probe, lowest competitor level
Added: Pho4 competitor, 0.05 µM
Reading: higher = stronger binding
All sequences stand within: … GTCTTGATTCGCTTGACGCTGCTG
`AGGAAAAGTTACCTGCGCATGCCGATGTCTACACTT` gave a fluorescence intensity of 66.4 a.u.
`CTTTCCCGATCTTGCGAAGTGGGTGTAGCACATTTG` has a fluorescence intensity of 77.9 a.u.
For `AAAGCGGTAATTTGTGGCGTGGGTGCAGATATCTAT`, the fluorescence intensity was 82.1 a.u.
`ACTTTCATTTGATGAAACGTGAAACTCTAATTAAGA` has a fluorescence intensity of 145 a.u.
The fluorescence intensity of `CAGGAGAACTTGCATCATGTGGTGTTCTTCCGAGAT` is reported as 254 a.u.
With `GTCTGCAAGTTTCTGCCCGTGCTTTTGTGTACCAAT` the fluorescence intensity was 79.5 a.u.
`TAGTGTACTCGCGGCCACGATCCATCTGGATAACTA` gave a fluorescence intensity of 52.2 a.u.
With `TCGCAATATGAATATCACAGAAAAATTAGAGCAACA` the fluorescence intensity was 90.4 a.u.
For `CTTTGCCGAACCCATCACGGCATAACCTGCAGAATA`, the fluorescence intensity was 70.8 a.u.
`AAATTACTAAGTTGTAGAGTGGGTGACGCCGTATGA` has a fluorescence intensity of 65.8 a.u.
With `GTCTTGTCTCATTGAATTGTGGGTGTCCCCACTTCA` the fluorescence intensity was 89.8 a.u.
The fluorescence intensity of `GTCAACCGATTGGATCAGGTGAGGAAGTACTCAGCG` is reported as 226 a.u.
`TTCAATGAAATTCGTCACGTCTCTGAGTTTCCTGAG` gave a fluorescence intensity of 115 a.u.
For `CGACGAAGTACTGGACACGTTCCCTTCAAACATCAA`, the fluorescence intensity was 81.8 a.u.
`AATCTGTGTCAGTTCCACGTTCGTAATGGCAACCCG` has a fluorescence intensity of 58.9 a.u.
For `CGTCCTAGTGATTGTCACAGTACTTCCATGAGGAAG`, the fluorescence intensity was 95.4 a.u.
`CTAACGAAGGTTTGTCACGTTACTTACAAGCCAAGT` has a fluorescence intensity of 791 a.u.
The fluorescence intensity of `CTTGACCACTTATTTCACGGGCTCCGTAGCGGACAA` is reported as 76.3 a.u.
For `ATCGCTTATCGCTGTCATGTGACAGTTAATTGAAAT`, the fluorescence intensity was 2840 a.u.

Excerpt of the above (series 2):
`ACCTCGGA` has an E-score of 0.0525.
With `CAATCGGG` the E-score was -0.052.
With `GGCCAATA` the E-score was -0.128.
`CCTGAGTC` gave an E-score of 0.00428.
For `ATGCAGGG`, the E-score was 0.0558.
With `CCTATGAA` the E-score was -0.181.
